Measured values pooled from the literature.
Each numbered part is a random draw from the data of one study; scales do not carry over between parts.

Set 1 — method: protein-binding microarray; form: double-stranded DNA, one strand shown; matrix: in vitro; concentration: 250 nM; notes: 60-bp whole probe; added: salmon DNA 0.4 mg/ml; reference: random background probes; reading: higher = stronger binding; constant ends, left off below: GCCTAGCAC … GTCTTGATTCGCTTGACGCTGCTG
Target: Interferon regulatory factor 7, full length, phosphomimetic (IRF7, Homo sapiens, UniProt Q92985, residues 1-503, S101K/S471D/S472D/S475D/S476D/S477D/S483D/S484D/S487D)
UniProt Q92985, sequence (whole entry, unmodified, looked up): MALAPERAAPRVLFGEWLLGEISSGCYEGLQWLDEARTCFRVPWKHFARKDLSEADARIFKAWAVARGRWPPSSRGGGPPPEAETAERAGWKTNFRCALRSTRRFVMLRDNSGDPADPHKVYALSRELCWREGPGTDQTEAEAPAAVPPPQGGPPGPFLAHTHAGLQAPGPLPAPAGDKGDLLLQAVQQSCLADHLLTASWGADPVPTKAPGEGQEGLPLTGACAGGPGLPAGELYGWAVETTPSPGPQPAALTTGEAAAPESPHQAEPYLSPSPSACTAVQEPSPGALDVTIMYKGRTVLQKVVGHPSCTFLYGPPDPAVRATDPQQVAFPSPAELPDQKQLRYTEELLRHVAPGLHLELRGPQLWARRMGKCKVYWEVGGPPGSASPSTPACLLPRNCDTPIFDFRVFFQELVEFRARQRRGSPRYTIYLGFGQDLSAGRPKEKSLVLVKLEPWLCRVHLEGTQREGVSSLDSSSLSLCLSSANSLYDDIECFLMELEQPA
With `TCATTTTTTGGTTTCTGACTGTGCTAG` the log fluorescence was 2.09 z-score.
With `TTAGATTCCAGTTTCGACTAGTGCTAG` the log fluorescence was 6.31 z-score.
For `TTAGAACTGAGTTTCGATTAGTGCTAG`, the log fluorescence was 8.12 z-score.
`GACGATCTCAGACTAGAGACGTGCTAG` has a log fluorescence of -0.276 z-score.
With `GACGGTCCCGGTATCGGGACGTGCTAG` the log fluorescence was 0.676 z-score.
`CCAGTTGAGCACAGGAAAGTGTGCTAG` gave a log fluorescence of 0.119 z-score.
`TTAGTTATCAGACTGGATTAGTGCTAG` has a log fluorescence of 0.257 z-score.
The log fluorescence of `TCATTTCTAATATTCTGACTGTGCTAG` is reported as 1.42 z-score.
`GACGGTTTCCTTGTCCTGACGTGCTAG` has a log fluorescence of 1.28 z-score.
The log fluorescence of `TCACATTCTGAATTCGAACTGTGCTAG` is reported as 1.28 z-score.
The log fluorescence of `TTAGATATCAGTCTCGATGAGTGCTAG` is reported as 0.0906 z-score.
`TTCTTAATGCTTCTGGGCCAGTGCTAG` has a log fluorescence of -0.141 z-score.
`GACGATATCGGGTATCGAGACGTGCTA` has a log fluorescence of -0.205 z-score.
With `TCAGCTACCTCTCTTAGACTGTGCTAG` the log fluorescence was -0.748 z-score.
With `GGCCATTTCCCTTGCCGCGCGTGCTAG` the log fluorescence was 0.643 z-score.
`TCATTTCCATTTTCTAAAACTGTGCTA` has a log fluorescence of 3.99 z-score.
With `TCACCTGTCTACATGGGACTGTGCTAG` the log fluorescence was -0.102 z-score.
For `TTAGGTATCCTTATCCTTTAGTGCTAG`, the log fluorescence was 0.643 z-score.
`TTCGGTATCGACTATCGGTTAGTGCTA` has a log fluorescence of 0.605 z-score.

Set 2 — method: universal PBM; form: double-stranded DNA, one strand shown; matrix: in vitro; concentration: 600 nM; reading: higher = stronger binding
Target: Sal-like protein 4, full length isoform A (SALL4, Homo sapiens, UniProt Q9UJQ4, residues 1-1053)
UniProt Q9UJQ4, sequence (whole entry, looked up): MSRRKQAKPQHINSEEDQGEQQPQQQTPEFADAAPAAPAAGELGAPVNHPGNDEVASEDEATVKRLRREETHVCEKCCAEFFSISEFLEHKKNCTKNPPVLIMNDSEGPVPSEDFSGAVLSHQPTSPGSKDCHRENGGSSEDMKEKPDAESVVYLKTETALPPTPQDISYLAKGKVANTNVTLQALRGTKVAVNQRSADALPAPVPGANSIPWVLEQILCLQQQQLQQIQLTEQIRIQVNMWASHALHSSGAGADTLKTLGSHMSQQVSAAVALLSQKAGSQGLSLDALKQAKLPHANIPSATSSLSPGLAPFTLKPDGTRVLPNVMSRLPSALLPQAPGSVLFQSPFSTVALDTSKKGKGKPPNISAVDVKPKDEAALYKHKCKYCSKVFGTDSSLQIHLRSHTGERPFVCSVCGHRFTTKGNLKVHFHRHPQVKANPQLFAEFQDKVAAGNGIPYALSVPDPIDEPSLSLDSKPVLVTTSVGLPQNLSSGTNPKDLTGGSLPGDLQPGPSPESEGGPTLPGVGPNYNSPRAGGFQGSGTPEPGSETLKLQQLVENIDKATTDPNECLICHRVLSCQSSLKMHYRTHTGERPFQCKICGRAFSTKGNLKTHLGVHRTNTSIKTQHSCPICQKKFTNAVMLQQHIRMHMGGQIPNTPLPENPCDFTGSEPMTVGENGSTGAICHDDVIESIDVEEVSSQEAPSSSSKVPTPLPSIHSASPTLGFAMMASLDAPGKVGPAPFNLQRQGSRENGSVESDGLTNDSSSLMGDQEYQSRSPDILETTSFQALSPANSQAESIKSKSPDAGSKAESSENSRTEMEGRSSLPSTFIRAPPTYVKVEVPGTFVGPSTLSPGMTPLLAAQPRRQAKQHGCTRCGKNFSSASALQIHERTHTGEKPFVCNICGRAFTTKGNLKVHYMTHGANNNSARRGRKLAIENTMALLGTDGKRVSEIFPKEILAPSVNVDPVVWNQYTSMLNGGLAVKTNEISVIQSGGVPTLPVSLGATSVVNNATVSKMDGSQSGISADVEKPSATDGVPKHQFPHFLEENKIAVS
Notes: 8-mer, flanks averaged, mean of replicates
For `AGTCAAAC`, the E-score was -0.125.
`ATTAACGC` has an E-score of 0.148.
`TCACGCAA` has an E-score of 0.181.
The E-score of `GGAGTAGA` is reported as 0.0298.
For `ATTGCAAG`, the E-score was 0.15.
The E-score of `AGGCTGAG` is reported as -0.203.
`ATTTTCTC` gave an E-score of 0.0655.
`AAAACGTG` has an E-score of 0.144.
For `TAATGCCA`, the E-score was 0.165.
`TACCCACA` gave an E-score of 0.0121.
For `AAGCTCTC`, the E-score was -0.0998.
For `AACCGGAC`, the E-score was -0.148.
`AAGGAAGG` gave an E-score of -0.00134.
With `GCCTAGTA` the E-score was -0.0853.
`CGGCCGTA` gave an E-score of -0.219.
With `CTATTCTC` the E-score was 0.0693.
For `CCGCGCTC`, the E-score was -0.278.
The E-score of `TCAGATGA` is reported as 0.147.
The E-score of `GTCTCAAC` is reported as -0.00594.
`AAACGAAC` gave an E-score of 0.106.

Set 3 — method: protein binding microarray; form: double-stranded DNA, one strand shown; matrix: in vitro; concentration: not given; reference: not given; reading: higher = stronger binding
Target: Histone acetyltransferase KAT6A, winged helix 2, GST fusion (KAT6A, Homo sapiens, UniProt Q92794, residues 85-181)
Notes: 8-mer, flanks averaged, mean of 2 arrays, mostly near background
Construct (chain): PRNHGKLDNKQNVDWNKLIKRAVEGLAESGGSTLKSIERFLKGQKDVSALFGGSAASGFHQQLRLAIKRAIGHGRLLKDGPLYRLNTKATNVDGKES
`AACACTCG` has an E-score of 0.0846.
`ACAGTTAG` gave an E-score of -0.17.
`ATCTGGCG` has an E-score of 0.178.
For `CCACGGCC`, the E-score was -0.014.
`GGACAACA` has an E-score of -0.0651.
For `CCAAGAAG`, the E-score was 0.0374.
`CGAGATTC` gave an E-score of 0.0691.
`ACGCGAAT` has an E-score of 0.0478.
For `AAGGTGAC`, the E-score was -0.137.
`CTATCCAC` gave an E-score of -0.018.
The E-score of `GGAACTAC` is reported as -0.0164.
With `ATAGTCGC` the E-score was -0.0145.
With `CTGAAAGA` the E-score was 0.096.
With `CGTCGAAG` the E-score was 0.00832.
`AATCCCCG` has an E-score of 0.0483.
The E-score of `GAGGATGA` is reported as -0.0734.
`CTCACGGC` gave an E-score of 0.0962.
`TTGTACAA` has an E-score of -0.0443.
With `ACCCCGGT` the E-score was -0.138.

Set 4 — method: RNA Bind-n-Seq; form: RNA; matrix: in vitro; concentration: 365 nM; reference: no-protein control; reading: higher = stronger binding
Target: RNA binding protein fox-1 homolog 2, RRM domain, GST-SBP tag (RBFOX2, Homo sapiens, UniProt O43251-10, residues 100-194)
Notes: natural RNA segment, single round, ends assumed
Constant ends, left off below: GGGAGUUCUACAGUCCGACGAUC … UGGAAUUCUCGGGUGCCAA
Target sequence (chain): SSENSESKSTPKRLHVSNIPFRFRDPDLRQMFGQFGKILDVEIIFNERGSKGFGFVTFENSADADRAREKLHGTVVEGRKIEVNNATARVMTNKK
`GGGAAUGCUUGACUCCACGCAUUGAGCCCCUCCUACACAUUGGUACAAGGUCGCUUAGGCCCCUCUAGUCAGGGAAGAUUUGGGGGUGACAGGCUCCUUAGUCCUCGACA`: “RBNS enrichment (R)” 2.05.
`AGUGAAAAGUGAGAUCAGUAAUGAGCUGUGUUGUUAACAAUAUUAUCUGGUAAUAAUACCAUGCAAUAUAGCGUUGUAUACCAACUUAGUGCAUUUUAUACUGUAUUAAA` — result for “RBNS enrichment (R)”: 0.35.
`GAAAGUGUGUGUCUGCUGGGGCAGCUGUGCCCCUGAAUCAUGGGCACGGAGGGCCGCCCGCCACGCCCCGCGCUCAACUGCUCCCGUGGAAGAUUAAAGGGCUGAAUCAU`: “RBNS enrichment (R)” 0.361.
For `CAAGACAGUAGAUGAGUCUGGUUAAGCGAGGUCAGACAUCCACCAGAAUCAACUCAGCCUCAGGCAUCCAAAGCCACACCACAGUCGGUGGUGAUGCAACUGGGGGCUUA`, “RBNS enrichment (R)” read 0.381.
`CAGUAGGCCAAGAAAUUAUCUUUCUGGUUUUUUUCCUCUAAACUCCAUUUGGUUAGCAGACAGUGACAGCUGAGCAGGUCUGAGCACUACUGUGUCAUAGUGGACCCUGA` — result for “RBNS enrichment (R)”: 0.301.
For `CUUCCCCAGCCUGCCCUCUGCCGCCCCGAACAGUCAGGUCUUUGGUCAUCGUUUUAACUGGGAACACUUGGUCACUACAAGGACAUGUCCUGGUUCCCUGGGACAGCAGG`, “RBNS enrichment (R)” read 0.567.
`CUGUUUUAUGGAUGGCAGCUUGGAGCAUAGCAAGAAGUUGGAGGAUUUGAAUUCCAUUCCCAGUUCUCAUUGUGUUUUGUUUCUUAAAACUAUAAUAAUCGGUUACUGUU` — result for “RBNS enrichment (R)”: 0.59.
For `GCCAAUGUGGGCUGGAACAACUCCACCUUCGCCUAGAGCCGCAGGGACCCACGCUGUCUGCGCUGGCUCCACCCGGGAACCCGCCGCACGCUGUGUUCUAGGCCCGCCCA`, “RBNS enrichment (R)” read 2.15.

Repeated from above (set 2):
For `TAATGCCA`, the E-score was 0.165.
For `AAGCTCTC`, the E-score was -0.0998.
`AAAACGTG` has an E-score of 0.144.
With `GCCTAGTA` the E-score was -0.0853.
For `CCGCGCTC`, the E-score was -0.278.
`ATTTTCTC` gave an E-score of 0.0655.
The E-score of `GGAGTAGA` is reported as 0.0298.
The E-score of `GTCTCAAC` is reported as -0.00594.
